Measurements of several laboratories.
Numbered parts are unrelated; each lists some results of a single study. Substitutions count along the parent as printed.

Sample 1
Target: Centromere-binding protein 1, full length, N-terminal tag (CBF1, Saccharomyces cerevisiae, UniProt P17106, residues 1-351)
Sequence of UniProt P17106 (whole entry, looked up): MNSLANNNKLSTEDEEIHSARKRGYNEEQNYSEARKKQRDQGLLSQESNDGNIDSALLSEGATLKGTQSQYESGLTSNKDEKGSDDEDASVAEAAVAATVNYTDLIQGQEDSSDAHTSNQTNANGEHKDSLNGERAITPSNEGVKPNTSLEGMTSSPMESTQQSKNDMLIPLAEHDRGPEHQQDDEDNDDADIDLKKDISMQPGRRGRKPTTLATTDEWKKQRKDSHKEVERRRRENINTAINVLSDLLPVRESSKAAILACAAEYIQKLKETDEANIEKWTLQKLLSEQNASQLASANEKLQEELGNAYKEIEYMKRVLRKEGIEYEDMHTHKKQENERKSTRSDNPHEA
Technique: protein-binding microarray
Molecule type: double-stranded DNA, one strand shown
Matrix: in vitro
Concentration: 0.8 µM
Setting: whole 60-bp probe, no competitor
Reading: higher = stronger binding
Sequence	fluorescence intensity [a.u.]
GAAAAGAATACTTCAGACGTGATAAAAATTTACTAGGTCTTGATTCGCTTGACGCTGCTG	592
CTAATTTCACAATAGCACGTATATTAATAATAGTTCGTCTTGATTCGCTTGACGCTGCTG	563
GAAAGGACATGGATTCATCACGTACAATGATCATAGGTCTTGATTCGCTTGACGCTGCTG	595
CTAACCGATATAGAATGTCTGATGAAAGAGCAATTCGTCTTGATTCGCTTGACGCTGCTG	555
CTACGAAATTGAGTGCACATGCTCGCAAGATAATTCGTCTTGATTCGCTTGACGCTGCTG	996
GAATAGGTTGTCGTCAATCACATGTAAATATCATAGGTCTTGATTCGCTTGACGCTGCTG	1500
GAATCTAGCAGTACTAGCGTGATGTTAATGTTATAGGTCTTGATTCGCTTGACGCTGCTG	627
GAAGAAAAGCGAAAACAGGTGATAATAATGATGTAGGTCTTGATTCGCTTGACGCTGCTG	716

Sample 2
Target: CCNB3, cyclin fold, Cln2 fusion (human)
Technique: yeast growth competition, sequencing
Matrix: yeast
Setting: strong parent motif
Baseline: not given
Reading: higher = stronger binding
Starting sequence: viral docking peptide; TSVRRALFTGGSD
Substitution	normalised enrichment score
TSVRRALFTGGFD [S12F]	1.52
TSVWRALFTGGSD [R4W]	0.533
TCVRRALFTGGSD [S2C]	2.04
TSVRRALFTNGSD [G10N]	2.47
TSVRRALRTGGSD [F8R]	0.0277
TSVRRALFTTGSD [G10T]	2.17
TSVRDALFTGGSD [R5D]	-0.121
TSVLRALFTGGSD [R4L]	1.09
TSVRGALFTGGSD [R5G]	0.242
TSVRPALFTGGSD [R5P]	-0.144
TEVRRALFTGGSD [S2E]	1.61
TSLRRALFTGGSD [V3L]	0.423
TSVHRALFTGGSD [R4H]	-0.272
TSVRRALFEGGSD [T9E]	1.19
TSVRRALFKGGSD [T9K]	1.68
TSVRRALFTGGLD [S12L]	1.6
TSVPRALFTGGSD [R4P]	0.394

Sample 3
Target: Hepatocyte nuclear factor 3-alpha (Foxa1, Mus musculus, UniProt P35582, residues 1-468, full length assumed)
Technique: EMSA with sequencing
Molecule type: double-stranded DNA, one strand shown
Matrix: in vitro
Concentration: 10 and 20 nM
Setting: whole designed probe, mean of two concentrations, ends assumed
Baseline: negative control set to 0
Reading: higher = stronger binding
Construct (chain): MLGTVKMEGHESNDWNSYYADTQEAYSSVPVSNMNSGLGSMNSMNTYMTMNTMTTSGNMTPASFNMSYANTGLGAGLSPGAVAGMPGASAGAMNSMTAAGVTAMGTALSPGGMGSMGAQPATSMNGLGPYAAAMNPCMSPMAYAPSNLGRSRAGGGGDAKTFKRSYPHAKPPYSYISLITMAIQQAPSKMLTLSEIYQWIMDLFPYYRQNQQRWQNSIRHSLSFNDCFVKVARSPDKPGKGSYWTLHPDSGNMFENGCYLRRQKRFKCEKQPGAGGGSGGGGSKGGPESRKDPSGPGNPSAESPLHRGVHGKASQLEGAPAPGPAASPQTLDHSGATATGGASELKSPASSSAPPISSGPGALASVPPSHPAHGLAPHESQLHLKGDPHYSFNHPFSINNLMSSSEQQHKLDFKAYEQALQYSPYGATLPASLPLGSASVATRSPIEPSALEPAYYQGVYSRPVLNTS
Sequence	normalised bound fraction [ratio]
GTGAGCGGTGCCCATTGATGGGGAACTTTCTTTAAAGTCCATTAACTTTACTTAAGAATACATCCTGGTATTGGTCATTCTTGATATTCTCAGGTACACAGTGTATTTATTTATTTATTAAATTACTTTTGAGATGAAGTCTCGCTCTGTCACCCAGGCTGGAGTGCAGTGGCACGATCTTGGCTCACTGCAACCTCCACCTCCTGGGTTCAAACAATTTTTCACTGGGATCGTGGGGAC	0.394
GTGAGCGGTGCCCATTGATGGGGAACAAAAATAGGAAAAAAACTCCTTAGATTGGTGAAACTGACCTGACCTAAGAACTAACCACCTTCTCAGATTATGAAAAACAAAAAGAAGTCTGTGTTTACATTGTTTGTTTCATTTGCCATTATTAACAGTGGCAGGACACAACTGTAAACAAACCAGCATAATCACAAAGCTGGTGCCCTATCCCACCTGCTCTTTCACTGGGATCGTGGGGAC	0.466
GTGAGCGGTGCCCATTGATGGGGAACATCTTCCCCCTCTTCCTTGCCCCACCAGCTCACCTTCCCGGGTTATTTGCAGATAGGAAAATAAATAAAGCCGGCATTCGTTAACCCTCTTCACGCGCATACTGCTGTTTGCTCTGCATGAATCATGGTCCTTACGCGACGCCAGGCTCCGGGAGAGCAAAGCACCGTGTCAGGCGCATGATCCGGGGTGGCCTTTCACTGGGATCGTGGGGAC	0.356
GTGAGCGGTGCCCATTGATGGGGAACATCTTCCCCCTCTTCCTTGCCCCACCAGCTCACCTTCCCGGGTATCTGCAAATAAGTATTTATTTTCAAGCCGGCATTCGTTAACCCTCTTCTGGCGCAAACTGCTGTTTACTTTGGATGAATCATGGTCCTTTGGCGACGCCAGGCTCCGGGAGAGCAAAGCACCGTGTCAGGGCCATGATCCGGGGTGGCCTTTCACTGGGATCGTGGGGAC	0.398
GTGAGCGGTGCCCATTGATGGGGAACATATCTGCTTTGCCTTATAAGATGAGAATTAAACATATTATTAGTTAAACTTGGCTAAATTCTATGCAGTAATAGATAACCCCAAAACCTCTATGTAAACATAAAGTTATTCCCCGATAAAGCAATTTACTGTGGGCCTGGCAACTCTTTCATGCAGCCTTCTTGCTGATCACAGCTAATGGAGACATCGTCATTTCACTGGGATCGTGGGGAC	0.475
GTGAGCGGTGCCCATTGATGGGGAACTCACGCTATCCAGCTCAGCACTTGGCAAACATTAGCTCACCACAAGAATGCATCCTCAGGTTTTTAAGTCAGACAAGGGCTTCATAGCAGTTCAAATGACATTGGGGATGAACAGTTCCTTGCGGTGGGGGCTGTTCTGTGCATTGTGAGACGCTCAGCAGCATCCACGTGGCCTCTTTCCACTAGATGCCAATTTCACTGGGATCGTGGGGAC	0.181
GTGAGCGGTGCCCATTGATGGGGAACGGGTCCCGGGCGGCGGCAGGAATGCAGGAATGCGCACAGGCTGTGGGCGGCCAGGAGGGAGTCCCGGCGCCTGCCCCGGCCGTAGTGAGTCTTTGTGTACCCTGTCCAACACCTCCCCCCGCCAGCGCGGAAGGCCGGGCTACCTGCGCGCCTGGCAGCGCCTGGCAGCCGGCTGGGTGGGGCGCAGGGGAGCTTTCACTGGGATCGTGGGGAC	-0.0102
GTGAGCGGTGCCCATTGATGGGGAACACATATGACCATTTTTTGGTTTATGTTTGGTCCCCTCTGATTGTTACATATACTTGAATTGCTTGCTTGGATGGGGAGCATACAAAATAATTAAGTAATCTTGAAGAAAAGTAGCTTGATTCGTTGCTAGGCTGAAGGATCACATAGAAAAGTTTTTTTCCAATTGCCCAAAATTAAGTACAAATACACACATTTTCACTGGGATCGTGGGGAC	0.0116

Other studies, line by line
Substance	partner	technique	matrix	with	measurement	result
YWHAE (Homo sapiens, UniProt P62258)	FOXC1 (Homo sapiens, UniProt Q12948)	cross-linking MS	cell fractions	DSSO	cross-linked residues	K125 to T88

Excerpt of the above (sample 2):
Substitution	normalised enrichment score
TSVWRALFTGGSD [R4W]	0.533
TSVRRALFTGGFD [S12F]	1.52
